# Published values gathered from unrelated publications.
# Numbered parts are unrelated; each lists some results of a single study.

# Block 1
# Target: RNA binding protein fox-1 homolog 2, RRM domain, GST-SBP tag (RBFOX2, Homo sapiens, UniProt O43251-10, residues 100-194)
# Method: RNA Bind-n-Seq
# Form: RNA
# Matrix: in vitro
# Concentration: 365 nM
# Setting: natural RNA segment, single round, ends assumed
# Reference: no-protein control
# Direction: higher = stronger binding
# Residues (chain): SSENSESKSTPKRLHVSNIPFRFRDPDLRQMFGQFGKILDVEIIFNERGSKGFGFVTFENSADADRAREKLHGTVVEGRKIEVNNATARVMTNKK
Strand,RBNS enrichment (R)
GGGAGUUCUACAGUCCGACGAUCCCUCCCGUGGGCCCUGUGGUGUGAUGCUGUGUCUGUAUAUUCUAUACAAAGGUACUUGUCCUUUCCCUUUGUAAACUACAUUUGACAUGGAUUAAACCAGUAUAAACAGUUGGAAUUCUCGGGUGCCAA,0.435
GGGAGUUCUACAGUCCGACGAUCGCCUCAGAGCAGAAGAAACAAACCUGCUGUCUUGUUGGCCCAGUGUUUCAGUUUUGAAGUGUGUACUUUCUCCUCUGUGUGUGCCAAUUACAUAUUAGAGAACAAGGAAUUGGAAUUCUCGGGUGCCAA,0.394
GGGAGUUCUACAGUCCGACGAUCCUUCGUCCAGUGUUAAGAACUGAGCCAAGGAGAAGCACGAGCAGCCUUCGCACCUGGAGGGUCAGAACGUGCACACACUGCUAACUAGUUUGCACCGGCAGUGCCUUUUUUGGAAUUCUCGGGUGCCAA,0.647
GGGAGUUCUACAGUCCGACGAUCACUUUCCCACACUGUGCCUUUACGAUCAGCGUGACAGAGUAGAAGCUGGAGUGCCUCACCACACGGCCCGGAAACAGCGGGAAGUAACUGGAAAGAGCUUUAGGACAGCUUGGAAUUCUCGGGUGCCAA,0.289
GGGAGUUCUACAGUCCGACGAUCGGCAGGAUCCCUGCCUACGCCCGGGCCCGAUUUGCGCUUUGCCGGACUGGAUGGAGUGGAGGAGGCCCAGGCCACAGUACCACCCCACCUGCCCAGGCAGCCCCUCGUCAUGGAAUUCUCGGGUGCCAA,0.143
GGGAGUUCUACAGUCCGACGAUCUUCUGGCUUUCCUCUGCAGCCAGGGAAGUGGACAGGAAACUGGACCUUAGGGACACCCUGCAGAGUAUGUUCAGUGUCUCGUCUUGGUGUUUCACAGUUCCAUGGUGAUAUGGAAUUCUCGGGUGCCAA,0.474
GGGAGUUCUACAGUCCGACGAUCCCUCCCCUCGCUGCUGGGCCCCAUCUCCACAGGAGAGACUGGUUCAGCUCUAGGGCCUCAGUCUGGAGUGGGAUAGGAGCAGUGAGUGACAAAGCCUCUGAAAGAUGCAUUGGAAUUCUCGGGUGCCAA,0.255
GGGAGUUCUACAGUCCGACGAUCCUUUUUACCCCUCCCCCUUCUGCCAUGUAACUGGAGGAUGUGCUAUGAGGUUGCAAACAGCUGGACUGUCAGGCUGCUUUUUCCCAGAUGCCUCCCUGCCUCCCUCCCUCUGGAAUUCUCGGGUGCCAA,0.73
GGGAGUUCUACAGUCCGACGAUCGACUUAUUUUAAUUCCACUUUAACAUUUUACUGUGCUGUUAACUUGGAAGACCUGUUUGAAAUUAGUCUUGAUUUCACACUCAUUUAAUCUGCUGAGCACAGGGCUGUUGUGGAAUUCUCGGGUGCCAA,0.51
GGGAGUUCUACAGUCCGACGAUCUAUGUGUGCUAUUAAUUCAUAGAAAAUUAAUUUUAAAAAAUAUAAGGAAUAAAUCCAGUGAAGAAUGGUUGUUGAUCAUCUAUCCAAAGUCCCAGGUUUAAAAAGCAAAGUGGAAUUCUCGGGUGCCAA,0.719
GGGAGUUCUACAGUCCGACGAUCAAACAACGGGAAAGUUCUUGACAGAGUCUGUGUCCGCUCAGUCCCUGCACUUUUCCUUUCCAAAUGCAUCUCGUUGGAUAUGGAAUAGAUCGUAGAUGUUGUAGACUGAGUGGAAUUCUCGGGUGCCAA,1.71
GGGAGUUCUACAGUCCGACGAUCUUUCCUGGGACCAAAUAAUGAGCACCUGCUGGAGUCUGGGCAGAGCAGCCUGGCUCCCUUCUACCCCAGAGCUCCCAAAUGCCGGCCUUGCAUUUGGAGGGUUCAUGGCCUGGAAUUCUCGGGUGCCAA,0.344

# Block 2
# Target: Interferon regulatory factor 5, full length, phosphomimetic (IRF5, Homo sapiens, UniProt Q13568-2, residues 1-514, S451D/S453D/S456D/S462D)
# Method: protein-binding microarray
# Form: double-stranded DNA, one strand shown
# Matrix: in vitro
# Concentration: 940 nM top
# Setting: 60-bp whole probe
# With: salmon DNA 0.4 mg/ml
# Reference: random background probes
# Direction: higher = stronger binding
# Constant ends, left off below: GCCTAGCAC … GTCTTGATTCGCTTGACGCTGCTG
Strand,fitted relative affinity [z-score]
TTAGGTTGCGGTTCCGGTTAGTGCTAG,2.52
TTAGAACAGAGTTTCGATTAGTGCTAG,6.07
GTTAGAATGTCCTTTCTCCATGTGCTA,-0.204
GACGGTATCTTTCTCCTGACGTGCTAG,1.5
GCCGGTATCCTTATCCTGACGTGCTAG,0.179
TTAGGTATCCTTATCGTTTAGTGCTAG,0.385
TCATTTTTTGGAATGTCACTGTGCTAG,0.381
CACAGGCTGCACAGAATGTAGTGCTAG,-0.369
AGATTTTTATCAAATGTGGGAGTGCTA,-0.157
TCTCTGCTACCCTCTGAAAGTGTGCTA,3.91
TTGAGGTTTTCTCTGGTTCTGTGCTAG,0.327

# Block 3
# Target: Sal-like protein 4, full length isoform B (SALL4, Homo sapiens, UniProt Q9UJQ4-2, residues 1-616)
# Method: universal PBM
# Form: double-stranded DNA, one strand shown
# Matrix: in vitro
# Concentration: not given
# Setting: 8-mer, flanks averaged, mean of replicates
# Direction: higher = stronger binding
Strand,E-score
AAACTGTT,0.211
CTCTGGAA,-0.106
ACTCCACC,-0.053
CAACGCTG,-0.152
GAAAGCCC,-0.141
CCAATGGG,-0.37
CAGTTGCA,-0.096
ATCCTTCC,-0.0111

# Single results of other studies
Molecule,target,assay,test system,setting,scale,measurement,result
"PhoQ, residues 284 288 289 292 302 303 SVHLDV","PhoP, residues 12 14 15 18 19 LQHIR (Escherichia coli, UniProt P23836)","Sort-seq, measured: YFP reporter",E. coli,"PhoQ-PhoP variant library, with: 10 µM Mg2+","reference: high Mg2+ state, higher = stronger signaling",fold induction,76.4

# Repeated from above (block 3):
Strand,E-score
AAACTGTT,0.211
CTCTGGAA,-0.106
ACTCCACC,-0.053
